Assay results collected from several papers.
Numbered parts are unrelated; each lists some results of a single study.

Block 1 — method: protein binding microarray; molecule type: double-stranded DNA, one strand shown; matrix: in vitro; tested at: not given; baseline: not given; direction: higher = stronger binding
Target: Histone acetyltransferase KAT6A, both winged helices, GST fusion (KAT6A, Homo sapiens, UniProt Q92794, residues 1-181)
Setting: 8-mer, flanks averaged, mean of 2 arrays, mostly near background
Construct (chain): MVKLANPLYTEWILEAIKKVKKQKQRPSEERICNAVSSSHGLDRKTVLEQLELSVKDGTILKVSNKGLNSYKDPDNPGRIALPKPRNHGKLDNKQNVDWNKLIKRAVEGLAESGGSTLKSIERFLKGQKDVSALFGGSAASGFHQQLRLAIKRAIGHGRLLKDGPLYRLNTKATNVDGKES
Oligonucleotide | E-score
CGCCGTGA | 0.323
AAGTGCTG | -0.238
AGTCGTTG | -0.077
CGGTGACA | -0.0102
AGCTCTCA | -0.242
ATTGGTGG | -0.16
TACACGAA | 0.0769
CAACTTAC | -0.117
AGACCCCC | 0.0683
ATGTTTAC | -0.0478
AGCCTGGA | -0.15
CGCCCTGC | 0.217
ACTACCCT | -0.226
GAATAAGA | -0.027
ACGGTCAA | 0.172
GATTCGCC | 0.0276
CTCCTATC | -0.132
AATGATTC | -0.106
AAACCATA | -0.00428
GCCCAGTA | -0.195
AGGTTTTG | -0.0815
GAACAGTC | -0.0341
CCCTCGTA | 0.0248
AGCGGCGA | 0.249
CAGCCGTA | 0.202

Block 2 — method: aptamer microarray, sandwich; molecule type: DNA with 2'F-ANA; matrix: in vitro; tested at: 200 nM; with: Cy3 exosite-II aptamer, 400 nM; direction: higher = stronger binding; oligonucleotide: GGTTGGTGTGGTTGG
Target: Prothrombin, mature alpha-thrombin (F2, Homo sapiens, UniProt P00734)
Setting: whole 15-mer aptamer, many near background
Modification | mean fluorescence intensity
2'F-ANA at 2 3 4 5 7 8 10 11 13 | 61.7 a.u.
2'F-ANA at 1 2 3 6 11 12 15 | 317 a.u.
2'F-ANA at 1 2 5 7 9 10 13 14 15 | 46.7 a.u.
2'F-ANA at 3 7 8 9 10 11 13 15 | 514 a.u.
2'F-ANA at 1 3 4 6 7 8 12 | 420 a.u.
2'F-ANA at 1 3 7 9 10 11 12 | 119 a.u.
2'F-ANA at 1 2 6 10 12 15 | 70.9 a.u.
2'F-ANA at 2 5 8 9 10 11 12 13 14 | 49.2 a.u.
2'F-ANA at 2 4 5 7 9 10 11 13 14 | 45.9 a.u.
2'F-ANA at 3 5 6 7 8 | 146 a.u.
2'F-ANA at 1 4 7 11 13 14 | 49.7 a.u.
2'F-ANA at 1 6 9 10 12 13 14 15 | 169 a.u.
2'F-ANA at 1 5 8 10 11 12 13 14 | 49.9 a.u.
2'F-ANA at 2 7 9 11 12 14 | 214 a.u.
2'F-ANA at 3 4 8 13 14 15 | 341 a.u.
2'F-ANA at 5 6 8 9 10 12 13 14 15 | 46.1 a.u.
2'F-ANA at 1 2 3 5 6 8 9 10 11 12 15 | 60.5 a.u.
2'F-ANA at 1 3 7 8 9 10 13 | 83.4 a.u.
2'F-ANA at 1 3 5 8 10 11 12 13 14 | 55.2 a.u.
2'F-ANA at 4 5 10 12 13 | 51.7 a.u.
2'F-ANA at 1 5 6 8 9 10 12 13 14 15 | 81 a.u.
2'F-ANA at 1 4 6 7 8 9 10 12 14 | 49.4 a.u.
2'F-ANA at 3 5 9 11 12 13 14 | 56.4 a.u.
2'F-ANA at 1 2 4 6 10 12 14 15 | 51.2 a.u.
2'F-ANA at 4 5 7 8 9 10 11 14 | 43.5 a.u.

Block 3 — method: protein-binding microarray; molecule type: double-stranded DNA, one strand shown; matrix: in vitro; tested at: 250 nM; setting: 60-bp whole probe; with: salmon DNA 0.4 mg/ml; baseline: random background probes; direction: higher = stronger binding; all sequences stand within: GCCTAGCAC … GTCTTGATTCGCTTGACGCTGCTG
Target: Interferon regulatory factor 5, full length, phosphomimetic (IRF5, Homo sapiens, UniProt Q13568-2, residues 1-514, K96S/S451D/S453D/S456D/S462D)
Oligonucleotide | log fluorescence
TTAGATCTCAGACTGGAATAGTGCTAG | -0.0262 z-score
TTACGACTGGACTATCGGTTAGTGCTA | 6.31 z-score
GACGATTTCGTGTATCGAGACGTGCTA | 1.87 z-score
TCAAGTCTGGGCTACAACACTGTGCTA | -0.677 z-score
GACGATCACAGTATCGAGACGTGCTAG | 1.55 z-score
GACGGTATCCTATTGCTGACGTGCTAG | 0.232 z-score
TTAGGTTTCGGGTCCGGTTAGTGCTAG | 8.03 z-score
GACGATATCAGACTGGAGAAGTGCTAG | 0.426 z-score
GGCTGTTTGGTTCTTATCCTGTGCTAG | -0.162 z-score
GACGGTTTCGACTTTTGGGACGTGCTA | 5.32 z-score
TGTGTTTTAAATAGGGCAAAGTGCTAG | 0.335 z-score
GACGGTATCGGTTTTGGGACGTGCTAG | 5.46 z-score
TCATATATATTTATGTAACTGTGCTAG | 0.547 z-score
GACGGGATCCTTATCCTGACGTGCTAG | -0.265 z-score
TTAGGTAACGGGTTTCGGTTAGTGCTA | 7.86 z-score
GACGGTCTCCTCTTCCTGACGTGCTAG | -0.272 z-score
GACGTTCTCAGACTGGAGACGTGCTAG | -0.0422 z-score
TTTGGTCTCCTTTTCCTTTAGTGCTAG | 0.708 z-score
GACGAACTGGGGACTGGAGAGGTGCTA | -0.5 z-score
TTAAGACTGCTTCTCCTTTAGTGCTAG | 0.14 z-score
CCTCCCCTTGCTTTCCAATTGTGCTAG | -0.103 z-score
GACGATCGCAGTTTCGAGACGTGCTAG | 4.18 z-score
GACGAACTGGTGACTGGAGACGTGCTA | -0.465 z-score
TTAGGACTGCTTGTCCTTTAGTGCTAG | -0.382 z-score
TTAGGTTTCGGGTTTCGGTTAGTGCTA | 10 z-score

Single results of other studies
Substance | target | test | system | conditions | scale | endpoint | result
PhoQ, residues 284 288 289 292 302 303 SMYGEC | PhoP, residues 12 14 15 18 19 LHATL (Escherichia coli, UniProt P23836) | Sort-seq, refers to: YFP reporter | E. coli | PhoQ-PhoP variant library, with: 10 µM Mg2+ | baseline: high Mg2+ state, higher = stronger signaling | fold induction | 9.69

Some of these lines once more (block 2):
Modification | mean fluorescence intensity
2'F-ANA at 4 5 10 12 13 | 51.7 a.u.
2'F-ANA at 3 5 6 7 8 | 146 a.u.
2'F-ANA at 3 5 9 11 12 13 14 | 56.4 a.u.
2'F-ANA at 1 2 5 7 9 10 13 14 15 | 46.7 a.u.
